Published values collected from several papers.
Each numbered part is a random draw from the data of one study; scales do not carry over between parts.
Sequence of UniProt P10721 (whole entry, unmodified, looked up): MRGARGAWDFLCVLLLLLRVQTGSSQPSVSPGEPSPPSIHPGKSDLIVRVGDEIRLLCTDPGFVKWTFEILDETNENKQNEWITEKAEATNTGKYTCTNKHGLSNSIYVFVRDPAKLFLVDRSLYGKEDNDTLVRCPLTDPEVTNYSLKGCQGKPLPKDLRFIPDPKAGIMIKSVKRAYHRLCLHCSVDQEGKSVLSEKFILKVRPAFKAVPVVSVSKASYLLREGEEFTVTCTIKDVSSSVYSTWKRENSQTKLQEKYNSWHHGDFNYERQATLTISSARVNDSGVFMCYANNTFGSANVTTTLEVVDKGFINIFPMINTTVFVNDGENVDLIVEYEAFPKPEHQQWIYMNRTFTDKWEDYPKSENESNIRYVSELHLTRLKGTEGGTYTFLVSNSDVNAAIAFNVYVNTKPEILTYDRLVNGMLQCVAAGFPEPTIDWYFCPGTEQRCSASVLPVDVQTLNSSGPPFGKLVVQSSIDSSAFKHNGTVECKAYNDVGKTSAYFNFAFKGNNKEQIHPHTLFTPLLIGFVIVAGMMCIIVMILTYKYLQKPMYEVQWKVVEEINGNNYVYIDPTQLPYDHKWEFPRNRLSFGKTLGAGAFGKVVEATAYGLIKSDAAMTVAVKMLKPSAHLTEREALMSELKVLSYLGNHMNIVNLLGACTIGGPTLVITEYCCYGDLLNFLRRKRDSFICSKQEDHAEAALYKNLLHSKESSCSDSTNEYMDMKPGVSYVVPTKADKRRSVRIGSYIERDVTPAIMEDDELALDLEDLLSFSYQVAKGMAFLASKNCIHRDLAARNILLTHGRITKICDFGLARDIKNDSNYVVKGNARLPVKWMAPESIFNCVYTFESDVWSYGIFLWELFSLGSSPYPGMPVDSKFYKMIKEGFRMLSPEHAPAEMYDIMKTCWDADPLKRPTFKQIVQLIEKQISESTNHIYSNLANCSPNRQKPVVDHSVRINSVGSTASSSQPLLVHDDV
Sequence of UniProt P48729 (whole entry, looked up): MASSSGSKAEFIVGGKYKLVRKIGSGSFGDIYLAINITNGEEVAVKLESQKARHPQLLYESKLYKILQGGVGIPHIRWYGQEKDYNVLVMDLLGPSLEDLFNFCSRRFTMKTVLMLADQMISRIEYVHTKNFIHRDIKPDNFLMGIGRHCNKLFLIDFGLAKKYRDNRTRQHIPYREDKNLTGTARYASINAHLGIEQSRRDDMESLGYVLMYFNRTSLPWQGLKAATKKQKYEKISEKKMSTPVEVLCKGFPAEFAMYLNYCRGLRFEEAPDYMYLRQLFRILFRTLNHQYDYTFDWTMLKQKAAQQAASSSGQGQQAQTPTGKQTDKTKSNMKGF
Sequence of UniProt Q13470 (whole entry, looked up): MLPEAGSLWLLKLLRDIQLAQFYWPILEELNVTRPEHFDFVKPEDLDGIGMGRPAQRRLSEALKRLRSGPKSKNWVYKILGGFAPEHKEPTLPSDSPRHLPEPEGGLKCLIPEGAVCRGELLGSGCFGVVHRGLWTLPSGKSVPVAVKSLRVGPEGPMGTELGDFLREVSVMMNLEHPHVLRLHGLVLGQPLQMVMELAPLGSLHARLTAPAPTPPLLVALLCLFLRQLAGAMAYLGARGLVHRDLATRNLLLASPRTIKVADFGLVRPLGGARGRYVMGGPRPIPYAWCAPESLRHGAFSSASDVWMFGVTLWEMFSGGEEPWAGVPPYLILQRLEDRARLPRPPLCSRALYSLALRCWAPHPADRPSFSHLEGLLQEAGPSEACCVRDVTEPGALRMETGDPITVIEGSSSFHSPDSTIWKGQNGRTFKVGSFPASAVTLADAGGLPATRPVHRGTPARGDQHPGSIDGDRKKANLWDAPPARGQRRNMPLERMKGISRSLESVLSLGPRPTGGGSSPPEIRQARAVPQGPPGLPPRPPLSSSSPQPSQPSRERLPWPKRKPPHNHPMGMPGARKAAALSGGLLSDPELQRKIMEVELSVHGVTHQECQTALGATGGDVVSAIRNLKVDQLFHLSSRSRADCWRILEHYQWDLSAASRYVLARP
Sequence of UniProt Q9H3Y6 (whole entry, looked up): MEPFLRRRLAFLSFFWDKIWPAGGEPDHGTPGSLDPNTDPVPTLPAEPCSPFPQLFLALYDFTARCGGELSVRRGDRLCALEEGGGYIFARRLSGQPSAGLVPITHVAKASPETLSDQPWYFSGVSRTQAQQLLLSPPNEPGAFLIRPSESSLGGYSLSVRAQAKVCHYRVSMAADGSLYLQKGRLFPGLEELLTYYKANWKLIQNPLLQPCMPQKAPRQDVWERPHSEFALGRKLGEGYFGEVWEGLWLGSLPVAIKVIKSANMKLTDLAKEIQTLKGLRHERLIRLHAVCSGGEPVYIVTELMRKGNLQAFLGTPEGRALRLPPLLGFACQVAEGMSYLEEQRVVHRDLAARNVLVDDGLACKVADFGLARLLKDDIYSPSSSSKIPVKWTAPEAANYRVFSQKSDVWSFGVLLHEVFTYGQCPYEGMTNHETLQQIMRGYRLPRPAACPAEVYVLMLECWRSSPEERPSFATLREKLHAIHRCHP
Sequence of UniProt Q9NRM7 (whole entry, looked up): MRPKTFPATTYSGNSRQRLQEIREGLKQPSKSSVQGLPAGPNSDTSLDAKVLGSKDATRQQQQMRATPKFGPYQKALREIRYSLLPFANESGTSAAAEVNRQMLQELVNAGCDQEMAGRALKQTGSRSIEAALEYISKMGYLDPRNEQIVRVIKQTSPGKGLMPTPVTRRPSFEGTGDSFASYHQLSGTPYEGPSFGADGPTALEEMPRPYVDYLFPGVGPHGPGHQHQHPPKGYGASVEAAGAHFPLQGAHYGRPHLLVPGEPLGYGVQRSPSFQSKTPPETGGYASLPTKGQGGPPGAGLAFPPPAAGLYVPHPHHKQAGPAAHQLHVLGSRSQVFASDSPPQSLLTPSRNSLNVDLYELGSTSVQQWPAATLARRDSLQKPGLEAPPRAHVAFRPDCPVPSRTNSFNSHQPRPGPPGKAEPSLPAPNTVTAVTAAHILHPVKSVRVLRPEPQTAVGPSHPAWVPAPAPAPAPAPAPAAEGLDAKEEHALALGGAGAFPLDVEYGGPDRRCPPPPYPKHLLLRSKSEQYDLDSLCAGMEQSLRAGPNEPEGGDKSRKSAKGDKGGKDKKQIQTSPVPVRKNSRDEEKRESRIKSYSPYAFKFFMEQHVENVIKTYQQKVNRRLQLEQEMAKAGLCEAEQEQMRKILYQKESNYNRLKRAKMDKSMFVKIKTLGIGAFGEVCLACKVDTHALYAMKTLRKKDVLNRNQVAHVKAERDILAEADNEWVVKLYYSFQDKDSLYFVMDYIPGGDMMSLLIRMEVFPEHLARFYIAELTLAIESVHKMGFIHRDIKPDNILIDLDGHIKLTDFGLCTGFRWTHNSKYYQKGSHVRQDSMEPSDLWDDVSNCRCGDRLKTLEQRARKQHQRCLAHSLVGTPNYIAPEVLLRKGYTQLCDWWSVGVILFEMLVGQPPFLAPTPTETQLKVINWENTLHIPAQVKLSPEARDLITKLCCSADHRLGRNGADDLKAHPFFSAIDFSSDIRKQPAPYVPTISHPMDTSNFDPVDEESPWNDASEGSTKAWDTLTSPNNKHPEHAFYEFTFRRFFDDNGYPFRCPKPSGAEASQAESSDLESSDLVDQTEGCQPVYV
Sequence of UniProt P42336 (whole entry, unmodified, looked up): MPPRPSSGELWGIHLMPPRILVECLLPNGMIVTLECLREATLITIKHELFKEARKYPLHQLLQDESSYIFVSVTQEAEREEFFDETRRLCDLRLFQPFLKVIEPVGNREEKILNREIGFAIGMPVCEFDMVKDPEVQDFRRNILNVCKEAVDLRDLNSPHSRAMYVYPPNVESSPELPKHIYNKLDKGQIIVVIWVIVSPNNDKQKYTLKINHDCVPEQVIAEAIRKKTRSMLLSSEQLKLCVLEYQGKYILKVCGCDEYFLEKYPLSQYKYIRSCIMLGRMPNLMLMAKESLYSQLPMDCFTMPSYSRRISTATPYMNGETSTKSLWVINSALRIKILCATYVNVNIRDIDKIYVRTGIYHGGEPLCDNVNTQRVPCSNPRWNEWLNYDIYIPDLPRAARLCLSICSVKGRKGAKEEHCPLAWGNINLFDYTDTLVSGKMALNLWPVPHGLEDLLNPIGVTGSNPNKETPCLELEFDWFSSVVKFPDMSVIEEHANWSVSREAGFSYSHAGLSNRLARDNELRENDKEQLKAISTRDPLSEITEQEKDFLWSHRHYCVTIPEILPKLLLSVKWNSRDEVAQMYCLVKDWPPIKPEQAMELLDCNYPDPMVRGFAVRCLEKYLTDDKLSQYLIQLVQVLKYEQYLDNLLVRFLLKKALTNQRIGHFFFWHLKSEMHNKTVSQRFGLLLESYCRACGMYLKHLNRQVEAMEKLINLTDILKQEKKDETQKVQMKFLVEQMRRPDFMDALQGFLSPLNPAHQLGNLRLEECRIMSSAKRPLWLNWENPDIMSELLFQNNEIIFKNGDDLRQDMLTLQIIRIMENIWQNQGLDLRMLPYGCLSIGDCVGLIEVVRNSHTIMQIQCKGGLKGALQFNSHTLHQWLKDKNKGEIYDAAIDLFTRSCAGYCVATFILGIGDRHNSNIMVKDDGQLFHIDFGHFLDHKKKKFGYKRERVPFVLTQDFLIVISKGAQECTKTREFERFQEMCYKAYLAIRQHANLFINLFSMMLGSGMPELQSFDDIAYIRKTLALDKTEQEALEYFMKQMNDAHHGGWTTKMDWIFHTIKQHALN
Sequence of UniProt P61075 (whole entry, looked up): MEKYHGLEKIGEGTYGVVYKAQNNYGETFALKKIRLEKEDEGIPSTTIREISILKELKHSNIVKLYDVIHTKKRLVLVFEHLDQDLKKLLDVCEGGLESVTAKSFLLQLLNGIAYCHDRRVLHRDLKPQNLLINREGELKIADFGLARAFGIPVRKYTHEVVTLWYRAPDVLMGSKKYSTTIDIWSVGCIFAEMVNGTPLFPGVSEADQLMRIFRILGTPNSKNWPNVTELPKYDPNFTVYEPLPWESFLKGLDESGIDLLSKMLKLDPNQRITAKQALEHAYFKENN

Set 1
Compound: CN1CCN(C(=O)c2ccc(NC(=O)Nc3ccc(N(C)c4ccnc(Nc5ccc(CS(C)(=O)=O)cc5)n4)cc3)cc2)CC1
Effect on: binding
Concentration: 1 µM
target | assay | remaining binding [%]
Myosin light chain kinase 2, skeletal/cardiac muscle (MYLK2, Homo sapiens, UniProt Q9H1R3) | competition with immobilised ligand | 36
Ankyrin repeat and protein kinase domain-containing protein 1 (ANKK1, Homo sapiens, UniProt Q8NFD2) |  | 28
Cyclin-dependent kinase 2 homolog (CRK2, Plasmodium falciparum, UniProt P61075) |  | 95
Tyrosine-protein kinase Fes/Fps (FES, Homo sapiens, UniProt P07332) |  | 67
Protein kinase C theta type (PRKCQ, Homo sapiens, UniProt Q04759) |  | 51
Tyrosine-protein kinase ABL1 (ABL1, Homo sapiens, UniProt P00519, M351T) |  | 20
BMP-2-inducible protein kinase (BMP2K, Homo sapiens, UniProt Q9NSY1) |  | 2.4
Phosphatidylinositol 4,5-bisphosphate 3-kinase catalytic subunit alpha isoform (PIK3CA, Homo sapiens, UniProt P42336, H1047Y) |  | 100
Insulin receptor-related protein (INSRR, Homo sapiens, UniProt P14616) |  | 100

Set 2
Organism: Sarcocystis neurona
Effect on: parasite growth
Concentration: 10 µM
Time: 96 h
Reference: untreated
Structure (SMILES) | log2 fold change
CN(C)c1ccc(O)c2c1C[C@H]1C[C@H]3[C@H](N(C)C)C(O)=C(C(N)=O)C(=O)[C@@]3(O)C(O)=C1C2=O | -0.78
O=C(O)c1cc(=O)c2c(OCC(O)COc3cccc4oc(C(=O)O)cc(=O)c34)cccc2o1 | 0.37
Cc1nc2ccccn2c(=O)c1CCN1CCC(C(=O)c2ccc(F)cc2)CC1 | -0.46
CCN(CC)CC#CCOC(=O)C(O)(c1ccccc1)C1CCCCC1 (stereo not drawn) | 0.28
O=C1Nc2ccc(Cl)cc2[C@@](C#CC2CC2)(C(F)(F)F)O1 | -0.32
Cc1ncc([N+](=O)[O-])n1CC(C)O (stereo not drawn) | 0.26
COc1cc(C)c(/C=C/C(C)=C/C=C/C(C)=C/C(=O)O)c(C)c1C | 0.73
CC1(C)S[C@@H]2[C@H](/N=C/N3CCCCCC3)C(=O)N2[C@H]1C(=O)O | 0.26
CC(=O)OCC(=O)[C@@]1(O)CC[C@H]2[C@@H]3CCC4=CC(=O)CC[C@]4(C)[C@H]3[C@@H](O)C[C@@]21C | -0.08
O=c1[nH]c(=O)n(C2CCCO2)cc1F (stereo not drawn) | -0.0751
CN1CCN(C2=Nc3ccccc3Oc3ccc(Cl)cc32)CC1 | 0.24

Set 3
SMILES: COc1ccc2cc(OCC3(C(=O)O)CN(C(=O)c4ccc(F)cc4)C3)ccc2c1
Effect on: cell-free assay
Technique: competition with immobilised ligand
Concentration: 1 µM
target | remaining binding [%]
Tyrosine-protein kinase ABL1, phosphorylated (ABL1, Homo sapiens, UniProt P00519, M351T) | 87
Receptor-interacting serine/threonine-protein kinase 1 (RIPK1, Homo sapiens, UniProt Q13546) | 100
Casein kinase I isoform alpha (CSNK1A1, Homo sapiens, UniProt P48729) | 100
Dual specificity protein kinase CLK1 (CLK1, Homo sapiens, UniProt P49759) | 79
Tyrosine-protein kinase Srms (SRMS, Homo sapiens, UniProt Q9H3Y6) | 100
Serine/threonine-protein kinase LATS2 (LATS2, Homo sapiens, UniProt Q9NRM7) | 90
Calcium/calmodulin-dependent protein kinase type II subunit alpha (CAMK2A, Homo sapiens, UniProt Q9UQM7) | 100
Cyclin-dependent kinase-like 5 (CDKL5, Homo sapiens, UniProt O76039) | 97
Hepatocyte growth factor receptor (MET, Homo sapiens, UniProt P08581) | 100
Mitogen-activated protein kinase kinase kinase 11 (MAP3K11, Homo sapiens, UniProt Q16584) | 79
Serine/threonine-protein kinase DCLK3 (DCLK3, Homo sapiens, UniProt Q9C098) | 98
Ribosomal protein S6 kinase alpha-4, C-terminal kinase domain (RPS6KA4, Homo sapiens, UniProt O75676) | 85
1-phosphatidylinositol 3-phosphate 5-kinase (PIKFYVE, Homo sapiens, UniProt Q9Y2I7) | 91
Non-receptor tyrosine-protein kinase TNK1 (TNK1, Homo sapiens, UniProt Q13470) | 100
Cyclin-dependent kinase-like 1 (CDKL1, Homo sapiens, UniProt Q00532) | 100
Mast/stem cell growth factor receptor Kit (KIT, Homo sapiens, UniProt P10721, V559D/V654A) | 100
Ephrin type-B receptor 1 (EPHB1, Homo sapiens, UniProt P54762) | 100
Dual specificity tyrosine-phosphorylation-regulated kinase 1A (DYRK1A, Homo sapiens, UniProt Q13627) | 100
SNF-related serine/threonine-protein kinase (SNRK, Homo sapiens, UniProt Q9NRH2) | 100
Uncharacterized serine/threonine-protein kinase SBK3 (SBK3, Homo sapiens, UniProt P0C264) | 100
Phosphatidylinositol 4-phosphate 3-kinase C2 domain-containing subunit beta (PIK3C2B, Homo sapiens, UniProt O00750) | 100
SRSF protein kinase 2 (SRPK2, Homo sapiens, UniProt P78362) | 84
Serine/threonine-protein kinase BRSK1 (BRSK1, Homo sapiens, UniProt Q8TDC3) | 85
Dual specificity mitogen-activated protein kinase kinase 7 (MAP2K7, Homo sapiens, UniProt O14733) | 79
RAF proto-oncogene serine/threonine-protein kinase (RAF1, Homo sapiens, UniProt P04049) | 100

Set 4
Cell line: A-375
Concentration: 100 µM
Time: 18 h
SMILES | viability [%]
COc1cc(C=O)ccc1O | 100
Fc1ccc([C@@H]2CCNC[C@H]2COc2ccc3c(c2)OCO3)cc1 | 8.53
CCCC(=O)OCOC(=O)C1=C(C)NC(C)=C(C(=O)OC)C1c1cccc(Cl)c1Cl (stereo not drawn) | 22.4
CC1(C)S[C@@H]2[C@H](NC(=O)[C@H](C(=O)O)c3ccsc3)C(=O)N2[C@H]1C(=O)O | 88.5
C[C@H]1[C@H](C)CC[C@]2(C(=O)O)CC[C@]3(C)C(=CC[C@@H]4[C@@]5(C)C[C@@H](O)[C@H](O)[C@@](C)(CO)[C@@H]5CC[C@]43C)[C@H]12 | 8.22
CC[C@H]1[C@@H](O)[C@@H]2[C@H](CC[C@]3(C)[C@@H]([C@H](C)CCC(=O)O)CC[C@@H]23)[C@@]2(C)CC[C@@H](O)C[C@@H]12 | 30.3
Nc1ccc(O)c(C(=O)O)c1 | 96.5
O=C(O)[C@H](O)[C@@H](O)[C@H](O)[C@H](O)CO | 102
NCCCC[C@H](N[C@@H](CCc1ccccc1)C(=O)O)C(=O)N1CCC[C@H]1C(=O)O | 83.8
O=C(O)CCC(=O)Nc1ccc(S(=O)(=O)Nc2nccs2)cc1 | 94.7
O=C1CN(/N=C/c2ccc([N+](=O)[O-])o2)C(=O)N1 | 79.3

Single results of other studies
Compound | system | quantity | result
CCOC(=O)[C@@H]1CSCC(=O)N[C@H](CC)C(=O)N(C)[C@@H](C)C(=O)N[C@@H](CC(C)C)C(=O)N2CCC[C@H]2C(=O)N(CC)CC(=O)N[C@@H](CC(C)C)C(=O)N(C)[C@@H](C)C(=O)N[C@@H](CC(C)C)C(=O)N1C | hydrocarbon/water | logD | -0.205
